# Assay results from different studies.
# Parts stem from different laboratories: compare values within a part only. Substitutions count along the parent as printed.

# Sample 1 — method: protein binding microarray; molecule type: double-stranded DNA, one strand shown; matrix: in vitro; tested at: not given; relative to: not given; reading: higher = stronger binding
# Target: Histone acetyltransferase KAT6A, both winged helices, GST fusion (KAT6A, Homo sapiens, UniProt Q92794, residues 1-181)
# Notes: 8-mer, flanks averaged, mean of 2 arrays, mostly near background
# Residues (chain): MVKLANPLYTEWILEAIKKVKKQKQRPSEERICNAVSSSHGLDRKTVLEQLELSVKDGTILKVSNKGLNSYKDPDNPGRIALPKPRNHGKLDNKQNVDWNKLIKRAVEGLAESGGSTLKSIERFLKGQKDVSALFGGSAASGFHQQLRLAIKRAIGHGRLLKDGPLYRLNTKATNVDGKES
Sequence,E-score
ACCGCTTA,0.166
CGGAGCAA,-0.0275
AGAGTGGA,-0.156
GGCCGATA,0.228
AGTTGAGG,-0.176
ATTAGTAA,-0.0918
CAGACTAC,-0.151
AGGACCTA,-0.00886
AAGTCTAG,-0.0189
CCTAAATA,-0.064
CGCCCCGC,0.267
AGCGGGTA,0.254
AAACTGCA,-0.0999
CATTATTC,-0.0901
AATAGATT,-0.0942
CTGAGATC,-0.0198
CCGCATCA,0.177
GTGCCTAA,-0.0812
CACCCGGA,0.0229
ATTTAACG,0.192
AAAGATTG,-0.189
ACAGTAAA,-0.109
CAAATTTC,-0.225
CAGGGGTC,-0.141
AATGTATA,-0.0639

# Sample 2 — method: RNA Bind-n-Seq; molecule type: RNA; matrix: in vitro; tested at: 365 nM; relative to: no-protein control; reading: higher = stronger binding
# Target: RNA binding protein fox-1 homolog 2, RRM domain, GST-SBP tag (RBFOX2, Homo sapiens, UniProt O43251-10, residues 100-194)
# Notes: natural RNA segment, single round, ends assumed
# Constant ends, left off below: GGGAGUUCUACAGUCCGACGAUC … UGGAAUUCUCGGGUGCCAA
# Target sequence (chain): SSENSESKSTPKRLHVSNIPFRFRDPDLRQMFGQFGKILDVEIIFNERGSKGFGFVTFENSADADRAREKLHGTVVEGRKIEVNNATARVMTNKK
Sequence,RBNS enrichment (R)
UACUGAUUAAAAUAUGUCUGUCUAAAGGGAUCUACUACUAUUUGCUUUUAAAAAAGUGUUCCCUAUUUAUUUAGGAAAAAGUGAAGCAAGCAACUGAAUUUAUAUGUAAA,1.18
AGCCCAGCCAUCAGCCCAGAUGACAGCGAUGAGGAGAACUGAGCGAACAGGGCGAAGAGCUGGUUAGGGUCAGACAACCUCGGUGGCCUGUGUGUCACUUCCCUCACCUC,0.416
GUGUCUAUAGGUACAGCCCGCUCUGGCUGCUGCCAGGUGGGCCCCUGCCAGGGGUCCUCACCCCUGUCCACCCUGUGCCUGGCUGUCCCUGCACCCAGAUACAGCAACAU,0.186
AGAAUGAAAUGAAUGAUUCUACAGCUAGGACUUAACCUUGAAAUGGAAAGUCAUGCAAUCCCAUUUGCAGGAUCUGUCUGUGCACAUGCCUCUGUAGAGAGCAGCAUUCC,0.773
AAUUGUACUUUGUUCCAUUGUUAAUUGAGAAACUGUUUCAAUAAAAUAUUCUUUUCUAUAGGUUGUAUGUGUUUGCUUCUUCCCUCCCUUGUUUGUCUGUUUGUUGUGUG,6.71
UCAUGGAAGAAAAUGGAAUCUACAGAAUUAUUUUCAAAAAUAAAGUAAAGGCUGAAUUGCUGAAAAAUAAGUGUGUGUGUGUGUCCUAGGGAAGGAGGCGAAGGGGUGGG,0.771
AUUGGUGCUAGCCCAUGGGAUCGAUCUCAAGUUGGGCUGGUUACUGGUUAGCCAUUCCCUCACUCUCUGUUCCCUCCUGCGUGCCUGCAUUUCCUAUAGACAGGUUAAAU,0.379
CCUCACUGGAGACUACAAGUGGUGGGUCAGGUGGUCCUAGGACCCAGGGGAGGUUUAGGGGUCCUAUCUCCUGGGGGAAGGGGAGAUCUAAGAUGUCCCAGGUCCUGGGA,0.45
CGUGCCCUGGAGAGGUCUUGGGUGAAAACUUGACCUUGAAGAAACCAAUCACAAAAGCGGCGUUGGGUCAGGGCUAGGCUUAGAGGUGAAGCAUCAACAUGGAACCAUCU,0.301
CACCUGCAGAGGUGCCCAUCAGGGCGAGUUCUCAGGUGUCUGUUGCUGUGCCAUGGGGGCCUUCUUCCUGGCCCUGUGCCCCUCAAGCAGGCUCUGCCCACCCACCCUCC,0.289
AACUGUGCUAAGAGAUCUUGACACAGCAGUAAGAUUCCAGUCUCCUUAUUACCAAACUCUCAACUCAUACGCAGCUUCAAUUUCCGAAAUGGCUUCAAAUAGGGAGGGUA,0.382
UCCCAGGAUCCCCUUGUCCCUGGAGUAGGGACUAACUAUAGCACAAAGUAAUAUGUGCCAAUGCUAUUUGUGAAAUGUUUGGUCUUUCUAAACGACUAAAGGAUUUGUUG,0.781

# Sample 3 — method: RNA Bind-n-Seq; molecule type: RNA; matrix: in vitro; tested at: 200 nM; notes: whole 134-nt RNA, ends assumed; with: 150 mM LiCl; relative to: input library; reading: higher = stronger binding; all molecules: 7-deaza-guanosine replaces G
# Target: Fragile X messenger ribonucleoprotein 1, C-terminal low-complexity region (Fmr1, Mus musculus, UniProt P35922)
# Constant ends, left off below: GGGAGUUCUACAGUCCGACGAUC … UGGAAUUCUCGGGUGUCAAGG
Sequence,log2 enrichment
GUCCUGUGCUACACAUCGUAUGUACCGAAUCGGGGCCCCCGGGCCCCCGGGCCCCCGGGAAAGUAUUAUGUUACGCCGUUCGGAUCUGCA,-2.95
UCCUGUGCUACACAUCGUAUGUACCGAAUCGGGGCCCCCCGGGCCCCCCGGGCCCCCCGGAAAGUAUUAUGUUACGCCGUUCGGAUCUGC,-1.66
AUUUCUCAGUUGAAGGAUGCUUACACUCUUGUCCAUCUAGACCUCAAUUACUGUUUUUCAGGAAUGUCUGAUCACAGAUACGGGGAUGGU,-2.31
UUCUUGCCAGAGACGAAGAAGCGCAAGAAACGCAAGUCAGAGGAUGGCACGCCAGCGGAGGAUGGCACACCUGCAGCCACCGGCGGGAGC,-1.56
CCUGUGCUACACAUCGUAUGUACCGAAUCGGGGAAAAAAAGGGGAAAAAGGGGUUUGGGGAAAGUAUUAUGUUACGCCGUUCGGAUCUGC,-0.635
AAGUCCUGUGCUACACAUCGUAUGUACCGAAUCGGUUUUUUUGGAAAAAAAGGAGGAAAGUAUUAUGUUACGCCGUUCGGAUCUGCACUU,-2.72
GCAGGAAGUAAGAACAAAUGGAAAUGCUUCGGAUAGUGGCAGGGGUGGGGGUUGCUAAGGAAAGGGUGGGAUGGGAGUGGGUAAAGAGUU,2.01
UAACUUUAGAGGAGGAUCUGAUGGAUAUGGCAGUGGACGUGGAUUUUGGGAUGGCUAUAAUGGGUAUGGAGGAGGACCUGGAGGUGGCAA,-0.0126
CUCAAGUCCUGUGCUACACAUCGUAUGUACCGAAUCGGUGGUUUGGUUUUUGGAAAGUAUUAUGUUACGCCGUUCGGAUCUGCACUUCCA,0.165
CACAGACAACACGCACCCACACAGGCACAGAGGGAAGGGGUUGGGAUGGGGACAGGGUGCACAGCAGGGCGGGGUAGGACCCCAGCCCCU,0.683
GGGCCCUGGUGGCAUGCGGGGAGGAAGAGGUGGCCUCAUGGAUCGUGGUGGUCCCGGUGGAAUGUUCAGAGGUGGCCGUGGUGGAGACAG,0.177

# Sample 4 — target: CCNE1, cyclin fold, Cln2 fusion (human); method: yeast growth competition, sequencing; matrix: yeast; notes: weak parent motif; relative to: not given; reading: higher = stronger binding
# Starting sequence: RP1L1 docking peptide (human); TLGLGPLSFTLED
Substitution,normalised enrichment score
E12A,0.211
S8A,0.367
G5A,0.619
L4A,0.376
T10A,0.402
D13A,0.385
L7A,0.00462

# Sample 5 — method: RNA Bind-n-Seq; molecule type: RNA; matrix: in vitro; tested at: not given; relative to: input RNA pool; reading: higher = stronger binding
# Target: RING finger protein unkempt homolog, zinc fingers 1-6, GST-SBP tag (UNK, Homo sapiens, UniProt Q9C0B0, residues 30-357)
# Chain of UniProt Q9C0B0 (30-357, looked up): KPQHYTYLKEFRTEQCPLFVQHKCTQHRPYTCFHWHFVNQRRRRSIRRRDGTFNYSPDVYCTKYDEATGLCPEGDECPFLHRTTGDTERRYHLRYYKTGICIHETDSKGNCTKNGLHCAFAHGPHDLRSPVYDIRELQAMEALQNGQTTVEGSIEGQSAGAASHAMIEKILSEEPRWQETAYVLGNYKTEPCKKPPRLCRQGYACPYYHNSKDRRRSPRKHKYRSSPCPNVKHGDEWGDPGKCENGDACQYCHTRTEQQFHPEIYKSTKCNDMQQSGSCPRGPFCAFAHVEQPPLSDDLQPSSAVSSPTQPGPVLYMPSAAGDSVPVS
# Notes: RNA with constant flanks, human and mouse sites, ends assumed
# Constant ends, left off below: GGGAGUUCUACAGUCCGACGAUC … CAACAGAGGAUUGAGCAUCA
Sequence,bound/input enrichment
CUGCCUCACCAGUUGGUACAUUUUGUUUUUGAAAGAGGUGGGAUCCAAAAGAGCUGUUUCUAGCCACACUCCAAGCACCUGAGACUUUGGGCACAAGGACACUUUUUUUUUUUUUUUUUU,2.93 ratio
CGCUGCCUCGGUGCAGGACGAGCGGAGGGGCUUUUGCAGCGGCCGUCGCCGCGGGAGGAGGGGGUUGAGCUGGCUCCGGAGUUGGCCAAAGAAGGUGGGCAUUUCUCGCUUCUCCUCGCC,0.112 ratio
GAUGGCCUUACUAAGUUUUUUACACCAUCACCUGAUGGUCGCAGAUCCCGAGGUGAAAUAAUAGACUUUUCAAAGCACUAUCGUCCAAGGAAAAAGGUCUCUCAGAAACAGUCAUGCACU,0.134 ratio
CGAUGUCCAGUCACUGUGUGUGGAGAUGUACAUGGGCAAUUUCAUGAUCUCAUGGAACUCUUUAGAAUUGGUGGUAAAUCACCAGAUACAAAUUACCUGUUUAUGGGAGACUAUGUGGAC,2.72 ratio
AUAUAUAUACACACACACAUAUAUAUAUUUAGAAACGUGAGUGUUAAAGAUAGAAUUUGUUUUAGGACAAAUUUUAAGAAAAUGUGGGAAUACCAAAUGUCCUUUAUAAGAAAAAUAAAU,0.947 ratio
AAUACUUGGCAGUUCAAUUUCAAAUUUAACCUUACAGAGGACAUGUACUCCCAGGAUUCCAUAGAUCUCCUUGCUAACUCAGGACUACAGUUUCAGAAGCAUGAAGAGGAAGGGAUUGAC,0.368 ratio
CUAAACUGUCAUUCACAACUUGGCUACACAUAGACUCUAGUCAGUUUUGUCUCCAGAACCUUAGGCUUUUGUAUUUUUUAAUUUUAAUUUCACUGUUAAUCCUUAUUGUCUUUUUUAUUA,83.5 ratio
CACAAGAUGGAGCAGGAAAUGACCCGGUUACAUCGGAGAGUGUCAGAGGUGGAGGCUGUGCUUAGUCAGAAGGAGGUGGAGCUGAAGGCCUCUGAGACUCAGAGAUCCCUCCUGGAGCAG,0.161 ratio
AUCAGGAGGAAAAGAUGUUGAAACAAGAAAACAGAUCGCAGGGUUACAAAAAAGAAUCCAAGACUUAGAAACAGAAAAUAUGGAACUUAAAAAUAAAGUACAAGAUUUGGAAAACCAACU,1.2 ratio
CUGCAGUAAAACACAGAAGGCUUUAAAAUGUUUUCUUGCAUAAAAUUCAAAACUUUUAAGUAGCUGCUUAUGAGAAUAGGGAAGGCAGAAAGCUAAUGUCUGUCUCAAGAUACAGGACAG,0.173 ratio
GAGUGGCAUAAAGUUUUUGAUCUUCCAGAGUCACUUGGUGGCAUUCGAGCCUGUACACUCACAGUUUUUCCACCUGAAGAAAACCCUGGGUCACCUUCUAGAGAAUCACCUCUUUCAGCA,0.295 ratio

# Some of these lines once more (sample 1):
Sequence,E-score
GGCCGATA,0.228
AGTTGAGG,-0.176
ATTAGTAA,-0.0918
CAGACTAC,-0.151
AGGACCTA,-0.00886
AAGTCTAG,-0.0189
CCTAAATA,-0.064
CGCCCCGC,0.267
AGCGGGTA,0.254
AAACTGCA,-0.0999
CATTATTC,-0.0901
